Results of several laboratories.
Parts stem from different laboratories: compare values within a part only.

Set 1 — technique: protein-binding microarray; form: double-stranded DNA, one strand shown; matrix: in vitro; concentration: 250 nM; notes: 60-bp whole probe; with: salmon DNA 0.4 mg/ml; relative to: random background probes; reading: higher = stronger binding; all sequences stand within: GCCTAGCAC … GTCTTGATTCGCTTGACGCTGCTG
Target: Interferon regulatory factor 7, full length, phosphomimetic (IRF7, Homo sapiens, UniProt Q92985, residues 1-503, S101K/S471D/S472D/S475D/S476D/S477D/S483D/S484D/S487D)
Residues (chain): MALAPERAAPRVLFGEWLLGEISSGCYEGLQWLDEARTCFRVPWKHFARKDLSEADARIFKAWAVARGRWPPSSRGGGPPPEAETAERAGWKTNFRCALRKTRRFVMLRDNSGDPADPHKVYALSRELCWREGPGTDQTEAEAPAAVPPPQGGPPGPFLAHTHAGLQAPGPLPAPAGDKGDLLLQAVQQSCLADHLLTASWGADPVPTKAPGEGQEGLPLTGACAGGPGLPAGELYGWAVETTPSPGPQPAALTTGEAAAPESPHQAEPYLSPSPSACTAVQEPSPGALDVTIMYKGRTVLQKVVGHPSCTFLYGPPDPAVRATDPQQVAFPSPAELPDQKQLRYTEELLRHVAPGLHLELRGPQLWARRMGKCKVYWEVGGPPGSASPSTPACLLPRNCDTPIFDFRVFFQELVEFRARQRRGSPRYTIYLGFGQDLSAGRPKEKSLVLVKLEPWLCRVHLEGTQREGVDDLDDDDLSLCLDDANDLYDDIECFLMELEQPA
`TTAGGACTGCTTATCATTTAGTGCTAG` has a log fluorescence of 0.13 z-score.
The log fluorescence of `TGGGATTTTCCCATGAGTCTGTGCTAG` is reported as 0.285 z-score.
`GACGGTCTCGGTTTCGGGAAGTGCTAG` gave a log fluorescence of 7.28 z-score.
For `TATGTTCCCTATTTAAGGCAGTGCTAG`, the log fluorescence was 4.94 z-score.
With `TCAACTCTTCTTTTGCTACTGTGCTAG` the log fluorescence was 0.275 z-score.
`TCAGGTTTCGACACTGGGTTAGTGCTA` has a log fluorescence of 3.75 z-score.
`TTAGGTATCCATTTCCTTTAGTGCTAG` has a log fluorescence of 1.15 z-score.
`GACGATATCAGTATAGAGACGTGCTAG` gave a log fluorescence of -0.124 z-score.
The log fluorescence of `TGAGGTCTCCTTCTCCTTTAGTGCTAG` is reported as -0.16 z-score.
`ATGCCCCCCAAGAGGGGCGGGTGCTAG` has a log fluorescence of 0.619 z-score.
`TCATCTCTGCTCTTTTCAACTGTGCTA` has a log fluorescence of 0.626 z-score.
`GCCGGACTGGACTTTCGGGACGTGCTA` has a log fluorescence of -0.574 z-score.
The log fluorescence of `TTAGTTATCCTTTTCCTTTAGTGCTAG` is reported as 1.56 z-score.
The log fluorescence of `GACGGACTGGGTTCCGGGACGTGCTAG` is reported as 0.102 z-score.
The log fluorescence of `TCATTTTTCCGAGTGAGACTGTGCTAG` is reported as 1.33 z-score.
`AAGCTTCTTTTTTATTCTAAAGTGCTA` gave a log fluorescence of 0.708 z-score.

Set 2 — technique: RNAcompete; form: RNA; matrix: in vitro; concentration: 20 nM; notes: 7-mer, probes averaged, single round; relative to: mean of 7-mers; reading: higher = stronger binding
Target: PABPC1L2, full length, GST fusion (mouse, UniProt A0ABA7IW68)
Residues (chain): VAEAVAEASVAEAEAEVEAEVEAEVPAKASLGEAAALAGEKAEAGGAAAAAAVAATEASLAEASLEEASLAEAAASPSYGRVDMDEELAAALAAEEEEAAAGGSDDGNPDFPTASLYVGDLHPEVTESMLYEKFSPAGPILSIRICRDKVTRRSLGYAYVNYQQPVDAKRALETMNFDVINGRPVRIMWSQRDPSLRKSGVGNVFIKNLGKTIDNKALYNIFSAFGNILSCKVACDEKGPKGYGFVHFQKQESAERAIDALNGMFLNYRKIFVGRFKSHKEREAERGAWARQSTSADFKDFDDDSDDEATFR
`CUGACGU` gave a 7-mer Z-score of -0.186.
The 7-mer Z-score of `GUUUGUA` is reported as -0.418.
With `GAACAUC` the 7-mer Z-score was -0.233.
With `UAGUAGC` the 7-mer Z-score was -0.32.
With `CAUAUGG` the 7-mer Z-score was -0.121.
For `CAUAACU`, the 7-mer Z-score was -0.122.
With `GGUCAAC` the 7-mer Z-score was -0.00652.
`UUCGGAA` gave a 7-mer Z-score of -0.0917.
`ACGCGGA` gave a 7-mer Z-score of 0.117.
`GCUAAAG` has a 7-mer Z-score of 0.282.
For `GGGUGAU`, the 7-mer Z-score was 0.204.
With `UCCCUUA` the 7-mer Z-score was -0.427.
The 7-mer Z-score of `CAGUGUU` is reported as -0.273.
For `GUGAACG`, the 7-mer Z-score was -0.222.
`AGUCUUA` has a 7-mer Z-score of -0.365.
For `GGCAACC`, the 7-mer Z-score was 0.149.
`CCUACCA` gave a 7-mer Z-score of -0.184.

Set 3 — technique: EMSA with sequencing; form: double-stranded DNA, one strand shown; matrix: in vitro; concentration: 10 and 20 nM; relative to: negative control set to 0; reading: higher = stronger binding
Target: Hepatocyte nuclear factor 3-alpha (Foxa1, Mus musculus, UniProt P35582, residues 1-468, full length assumed)
Notes: whole designed probe, mean of two concentrations, ends assumed
Construct (chain): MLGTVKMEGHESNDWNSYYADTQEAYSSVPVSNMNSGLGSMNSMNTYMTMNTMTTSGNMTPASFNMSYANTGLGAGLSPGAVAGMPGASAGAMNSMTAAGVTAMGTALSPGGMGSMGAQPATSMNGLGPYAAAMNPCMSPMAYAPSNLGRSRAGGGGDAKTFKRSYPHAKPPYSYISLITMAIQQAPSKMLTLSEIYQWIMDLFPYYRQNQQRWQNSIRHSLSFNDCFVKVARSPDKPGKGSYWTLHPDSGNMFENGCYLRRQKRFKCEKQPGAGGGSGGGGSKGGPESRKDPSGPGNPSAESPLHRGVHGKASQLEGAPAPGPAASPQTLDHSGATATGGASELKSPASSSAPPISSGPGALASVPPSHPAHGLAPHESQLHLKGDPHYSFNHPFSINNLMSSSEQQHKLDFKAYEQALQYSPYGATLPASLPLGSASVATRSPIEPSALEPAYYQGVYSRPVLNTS
`GTGAGCGGTGCCCATTGATGGGGAACACACTTCTTCCATTTCCTCAACTCCTAAACATTCATTTATTCATTCTTCATCACACAAAAATCTGAATCTGGCTTCTGCCCCCTACCCTCCTTATTTACTTTCTCAAATAGTATACATTTAGTCATTAAACAAACATACATACATGCATATTTTCAAGATTATCAAGCAATTCCTGTTTCAACTTTTCTTAAATTTCACTGGGATCGTGGGGAC`: “normalised bound fraction” 0.46 ratio.
`GTGAGCGGTGCCCATTGATGGGGAACTGTGCCTGAGCAAGCTGAGATTGCTCATCGTCTGGACAAACCTTGTTGAATCTTGTCAGGAAACTTTTTACATTGCTCCTTGGCAAATAGTGCAAATTACTTTGTTTAAATACCTGCAGGAAATAACACAATTGAGCAAACTAGAGACAAGGACAGTTAGTGTATTGAGTATTTTTTTCTCAATTTATTATGCTTTCACTGGGATCGTGGGGAC` — result for “normalised bound fraction”: 0.193 ratio.
`GTGAGCGGTGCCCATTGATGGGGAACGTAATTCATATAACAATTAAGTACGCACTTTTGAAAAATGACATCTAATTAATAGAAACTCTTCCAAAGCAACAAGTGGGTAGCAAAACTAAGTAAACAAGAGTGCTTAAAAATGGAACTCCTGGAATGCTTTTAAACCATGTTACTTGCTTATCATTCACTGATTATTCCTGGTTTCTCTTTTCTTTCTCTATTTCACTGGGATCGTGGGGAC`: “normalised bound fraction” 0.407 ratio.
`GTGAGCGGTGCCCATTGATGGGGAACTAGAATTTGAATTTAACATCATACTTTTGTTTTCCTTGATGAAAATCTAGACCTATCCAACTTAAGTCTCAGGAATTAAAACCTTTACTGTATGTTTACTCTGTCTTGCAAATCATTGTTGCACTTTTTAAAACTTTGAAATAATTTATTTTTATTCATCAGGTGCAGATGAGGTGATGTAATTGCAGAATTTTTTCACTGGGATCGTGGGGAC`: “normalised bound fraction” 0.27 ratio.

Set 4 — technique: RNA Bind-n-Seq; form: RNA; matrix: in vitro; concentration: 365 nM; relative to: no-protein control; reading: higher = stronger binding
Target: RNA binding protein fox-1 homolog 2, RRM domain, GST-SBP tag (RBFOX2, Homo sapiens, UniProt O43251-10, residues 100-194)
Notes: natural RNA segment, single round, ends assumed
Residues (chain): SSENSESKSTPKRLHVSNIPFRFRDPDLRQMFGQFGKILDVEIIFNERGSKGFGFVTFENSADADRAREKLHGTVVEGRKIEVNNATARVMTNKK
`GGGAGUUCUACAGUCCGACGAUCUUCCUAGCAAACGGGAGGAAACCAGCUCCUGUGUGCCUCUGACGACUGUUGUCUGUGCCAACCUAAGAGAUUCCCAGUGCUGGGACCACUGCUUUUUUUCCUGAUGUGGGUGGAAUUCUCGGGUGCCAA` — result for “RBNS enrichment (R)”: 0.457.
`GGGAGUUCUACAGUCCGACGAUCAUUUUCUUUCUGAUUUCUUUUACUCUGCAUACAUUUUAUAAGUUCAAGGUCAGCUGUCAAAAGGAUAAGCUGUGGGGUUAGAACAUAUUACAUUGCAACAUCCUAAAUUGUGGAAUUCUCGGGUGCCAA` — result for “RBNS enrichment (R)”: 0.824.
`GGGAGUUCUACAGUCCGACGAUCCAGGAACCCUGAUGAGCCCUCACGUGCCUGUCCUUGACCAAGGUGACUUUUAUGCUGUGGCAACUGUGACAGGCUAUUUUUUAGCAAAGAGUUAGACGUUUGUUAUCAUGUGGAAUUCUCGGGUGCCAA` — result for “RBNS enrichment (R)”: 0.462.
For `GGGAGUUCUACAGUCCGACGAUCAACCCAUUGCCCCGUUGACCUGACCUGGAAGAAGACUGUCAGCAAAAGGAAAAUACCAGAAUAUCUGGAAAGCUUGAAGUGUAAGAUGGGAUCUCGUUGGGGAAUUGGAUUGGAAUUCUCGGGUGCCAA`, “RBNS enrichment (R)” read 0.995.
`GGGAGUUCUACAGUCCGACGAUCUGUACAGAAUAUUUAUUUUUUCUCAAAAUGCAUUUUAACUACUACAUUGGCUGUGCCCAAAUGAGUCCUCUUUGAAUAGAAAGUGAACCCAGGGCAAUGACAGCCAUUCUUGGAAUUCUCGGGUGCCAA` — result for “RBNS enrichment (R)”: 1.55.
`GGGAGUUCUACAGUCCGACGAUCUGGGCCCCACAUCAUGGGAAAGGCUGUCAAAUAUCUUUCCCAAGCUCCAAGGCACUCAUUUGCUCCUUCCCCAGCCUCCAAUUAGAACAAGCCACCCACCAGCCUAUCUAUGGAAUUCUCGGGUGCCAA` — result for “RBNS enrichment (R)”: 0.524.
Under “RBNS enrichment (R)”, `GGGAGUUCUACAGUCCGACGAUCGAGGAUUUUUUUUUCCUUAAGUAAAUCAUUUCAAGUGUAAAAACUAUUUUCUUUUAAUCUGGAUCUUUUGAGGUAAGAAGAUCCACCUUUAGUCAGGGCCACACCUUCUGUGGAAUUCUCGGGUGCCAA` is recorded as 0.537.
`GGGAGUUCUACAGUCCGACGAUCGGUCAGCACAGUGCCUUUUCCUCUCCUGCUCUGAGCCAGGGUGGGGCAUUCCCUCUAGAUUCAGGUUUGGGCAGGGGUCCUAUAGUCCCUGCCAUGGGGCUGCUUCCCUGUGGAAUUCUCGGGUGCCAA` — result for “RBNS enrichment (R)”: 0.311.
`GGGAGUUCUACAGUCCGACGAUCCGGGAGCUAGAGACCAGGAGAUAUGAGGCCAGUGUGAGCUGUGUCACAAGUUCCAGGUCAGCCUGUGCUGUGUAGCACAGUCCAGCUCCCUACACCUCCUCACACACACAUGGAAUUCUCGGGUGCCAA`: “RBNS enrichment (R)” 0.204.
